Assay results collected from several papers.
“And” joins repeats or separate records; there may be more than shown. ± gives the spread as reported.

SMILES | cell line | test | conditions | how to read | quantity | value
C=CC(=O)N1[C@H](c2ccc3c(c2)OCO3)c2[nH]c3ccccc3c2C[C@@H]1C(=O)NC | rat DRG neurons |  | 0.04115 µM, 48 h, together with: vincristine 40 nM |  | neuron degeneration | 79.1% and 75.2%
CNS(=O)(=O)Nc1nccc(Cc2c(C)c3ccc(Oc4ncccc4F)cc3oc2=O)c1F | SNG-M | cell viability, CellTiter-Glo | 7 days |  | IC50 | 0.238 µM
O=C(C[Se]C(=O)c1cc2ccccc2[nH]1)Nc1cccc(C(F)(F)F)c1 | NCI60 prostate subpanel (PC-3, DU-145) | cell growth, inhibitor | five-dose |  | GI50 | 1.51 µM
CN1CC[C@@H](COc2cnc(C#N)cc2-c2ccn3nc(NC(=O)C4CC4)cc3c2)C1 | human PBMC, myeloid cells | single-cell RNA-seq | 10 µM, together with: LPS | reference: LPS alone | number of reduced transcripts | 22 transcripts
Cn1ncc2cc(-c3cncc(Cl)c3N3CCC4(CCNC4=O)CC3)ccc21 | LS174T | microarray, item: CXCL8 | concentration not given, 24 h, gene set IL-8 | reference: untreated cells | fold change in expression | -26.3
Cc1cccc(-c2cccc(C)n2)n1.Cc1cccc(-c2cccc(C)n2)n1.F[P-](F)(F)(F)(F)F.F[P-](F)(F)(F)(F)F.[Ru+2].c1ccc2c(-c3nc4c5cccnc5c5ncccc5c4[nH]3)c3ccccc3cc2c1 | SK-MEL-28 |  | normoxia, together with: blue light 453 nm, 100 J/cm2 | reference: dark over light EC50 | phototoxicity index | 99
O=C(C[Se]C(=O)c1ccc2ccccc2n1)Nc1cccc(C(F)(F)F)c1 | NCI60 prostate subpanel (PC-3, DU-145) | total growth inhibition, inhibitor | five-dose |  | mean TGI | 3.49 µM
CCC(=CCc1c(O)cc2c(c1O)C(=O)CC(c1ccc(O)cc1)O2)CC (stereo not drawn) | HeLa | cell growth or viability, MTT | 3.125 µM, 48 h |  | inhibition | 11.1%
CSCC[C@H](NC(=O)[C@H](CCC(N)=O)NC(=O)[C@H](CCCCN)NC(=O)[C@H](CCCNC(=N)N)NC(=O)[C@H](Cc1ccc(O)cc1)NC(=O)[C@H](CCCNC(=N)N)NC(=O)[C@H](CO)NC(=O)[C@H](Cc1ccc(O)cc1)NC(=O)[C@H](CO)NC(=O)[C@H](CC(=O)O)NC(=O)[C@@H](NC(=O)[C@@H](N)Cc1ccccc1)[C@@H](C)O)C(=O)N[C@@H](C)C(=O)N[C@H](C(=O)N[C@@H](CCCCN)C(=O)N[C@@H](CCCCN)C(=O)N[C@@H](Cc1ccc(O)cc1)C(=O)N[C@@H](CC(C)C)C(=O)N[C@@H](C)C(=O)N[C@@H](C)C(=O)N[C@H](C(=O)N[C@@H](CC(C)C)C(=O)NCC(=O)N[C@@H](CCCCN)C(=O)N[C@@H](CCCNC(=N)N)C(=O)N[C@@H](Cc1ccc(O)cc1)C(=O)N[C@@H](CCCCN)C(=O)N[C@@H](CCC(N)=O)C(=O)N[C@@H](CCCCn1cc(C[C@H](NC(=O)CNC(=O)[C@H](CO)NC(=O)[C@H](CCCNC(=N)N)NC(=O)[C@H](CO)NC(=O)[C@H](CC(C)C)NC(=O)[C@H](CC(C)C)NC(=O)CNC(=O)[C@H](C)NC(=O)[C@H](CC(C)C)NC(=O)[C@H](CCCNC(=N)N)NC(=O)[C@H](Cc2c[nH]cn2)NC(=O)[C@@H](NC(=O)[C@@H](N)C(C)C)[C@@H](C)O)C(=O)N[C@H](C(=O)N[C@H](C(=O)N[C@@H](CCCCN)C(=O)N[C@@H](CC(N)=O)C(=O)N[C@@H](CC(N)=O)C(=O)N[C@@H](Cc2ccccc2)C(=O)N[C@H](C(=O)N2CCC[C@H]2C(=O)N[C@H](C(=O)N[C@@H](CC(N)=O)C(=O)N[C@H](C(=O)NCC(=O)N[C@@H](CO)C(=O)N[C@@H](CCCCN)C(=O)N[C@@H](C)C(=O)N[C@@H](Cc2ccccc2)C(N)=O)C(C)C)[C@@H](C)O)C(C)C)C(C)C)C(C)C)nn1)C(=O)N[C@H](C(=O)N[C@@H](CCCCN)C(=O)N[C@@H](CC(N)=O)C(=O)N[C@@H](CCCCN)C(N)=O)C(C)C)C(C)C)C(C)C | transfected COS-7 cells | cAMP accumulation, antagonist | together with: VIP |  | A2 | 3.55 µM
CO[C@@H]1[C@@H](OC(=O)c2ccc(C)[nH]2)[C@@H](O)[C@H](Oc2ccc3c(O)c(NC(=O)c4c[nH]c(C(=O)Nc5c(O)c6ccc(O[C@@H]7OC(C)(C)[C@H](OC)[C@@H](OC(=O)c8ccc(C)[nH]8)[C@H]7O)c(C)c6oc5=O)c4C)c(=O)oc3c2C)OC1(C)C | HaCaT Tet-On cells, uninduced |  | 15 µM | reference: DMSO | cell number | 17%
COc1ccc(NC(=O)c2ccc3[nH]c(-c4ccc(N(C)C)cc4)nc3c2)cn1 | ZR-75-1 | cell growth, CellTiter-Glo |  |  | GI50 | > 30 µM
O=C(Nc1nnc2c1c(-c1ccc(Cl)cc1)nc1sc(=Cc3ccco3)c(=O)n12)c1ccccc1 (mixture of isomers) | A498 | SRB | 10 µM, NCI60 single-dose screen | reference: untreated | cell growth | 78.8%
CCN(CC)CC(=O)Nc1cccc(-n2cc(-c3ccc4ccc(-c5cn(-c6cccc(NC(=O)CN(CC)CC)c6)nn5)cc4c3)nn2)c1 | RCC4 | PCR angiogenesis array, item: VEGFA | 5 x IC50, 4 h, normoxia | reference: untreated | fold regulation | -1.17 fold
O=C(C[Se]C(=O)c1ccc2ccccc2c1)Nc1cccc(C(F)(F)F)c1 | NCI60 prostate subpanel (PC-3, DU-145) | cell growth | 10 µM, 48 h, one-dose |  | mean growth percent | -81.8%
CC(C)c1ccc(N(C)c2ccc3c(c2)OCC[C@H]3CNc2cnccc2C(=O)O)cc1 | SNG-M | cell viability, CellTiter-Glo | 7 days |  | IC50 | 4.9 µM
Cc1ncsc1-c1ccc(C(C)NC(=O)C2CC(O)CN2C(=O)C(NC(=O)CCCCCCCCCCN2CCCC(Nc3ncc(Cl)c(Nc4ccccc4S(=O)(=O)C(C)C)n3)C2)C(C)(C)C)cc1 (stereo not drawn) | 22Rv1 | RNA-seq, item: TFEB mRNA | concentration not given | reference: DMSO | log2 fold change | -2.58
CN1CCCNC(=O)c2cccc(c2)C(=O)NCCCN(C)CCCNc2cccc3c2C(=O)c2cccc(c2C3=O)NCCC1 | SAS | RNA-Seq, item: RPF2 mRNA | 1 µM, 6 h | reference: untreated cells | log2 fold change | -0.598
O=C(NCc1cc(F)cc(F)c1)[C@@]1(O)CCN(c2ccc3[nH]ccc3c2)C1=O | Anal PDX-derived tumour cells | colony formation, soft agar clonogenic | concentration not given, 8-10 days |  | maximal inhibition | 73%
CC[C@H](C)[C@H](NC(=O)[C@@H](NC(=O)[C@H](CCC(=O)O)NC(=O)[C@H](C)NC(=O)[C@H](C)NC(=O)[C@H](CCC(=O)O)NC(=O)[C@H](Cc1ccc(C(=O)c2ccccc2)cc1)NC(=O)[C@H](Cc1ccccc1)NC(=O)[C@@H](NC(=O)[C@@H](NC(=O)[C@H](CCCNC(=N)N)NC(=O)[C@H](C)NC(=O)[C@H](CC(N)=O)NC(=O)[C@H](CCCCN)NC(=O)[C@H](CCCNC(=N)N)NC(=O)[C@H](CCCCN)NC(=O)[C@H](CCCNC(=N)N)NC(=O)[C@H](CCCCN)NC(=O)[C@@H]1CCCN1C(=O)[C@H](CCCNC(=N)N)NC(=O)[C@H](CCCCN)NC(=O)[C@H](CCCNC(=N)N)NC(=O)[C@H](CCCNC(=N)N)NC(C)=O)C(C)C)[C@@H](C)O)[C@@H](C)CC)C(N)=O | HeLa cells | calcium release, Fluo-4 imaging | 40 µM |  | responder cells | 93%
Cc1cccc(-c2cccc(C)n2)n1.Cc1cccc(-c2cccc(C)n2)n1.F[P-](F)(F)(F)(F)F.F[P-](F)(F)(F)(F)F.[Ru+2].c1ccc(-c2nc3c4cccnc4c4ncccc4c3[nH]2)cc1 | SK-MEL-28 | cell viability | normoxia, together with: blue light 453 nm, 100 J/cm2 |  | EC50 | 14.2 ± 0.9 µM
Cn1c(=O)n(C2CCC(=O)NC2=O)c2ccc(C3CCN(CC(=O)Nc4cccc(CS(=O)(=O)N5CC[C@H](Nc6cccc(-c7sc(C(=O)O)c(OCC(=O)O)c7Cl)c6)CC5(C)C)c4)CC3)cc21 (stereo partly drawn) | B16-F10 | HTRF, item: phospho-STAT1 Tyr701 | 0.37 µM, together with: IFN-γ | reference: min-max normalised | pSTAT1 level | 87.2% and 93.2% and 86.9% and 81.6% and 89.4% and 97.3%
Cc1c(Cl)cccc1Nc1ccccc1C(=O)[Se]CC(=O)Nc1cccc(C(F)(F)F)c1 | NCI60 breast subpanel mean | cell growth |  |  | TGI | 4.18 µM
Cc1cccc(-c2cccc(C)n2)n1.Cc1cccc(-c2cccc(C)n2)n1.F[P-](F)(F)(F)(F)F.F[P-](F)(F)(F)(F)F.[Ru+2].c1ccc2c(c1)Cc1cc(-c3nc4c5cccnc5c5ncccc5c4[nH]3)ccc1-2 | SK-MEL-28 |  | normoxia, together with: blue light 453 nm, 100 J/cm2 | reference: dark over light EC50 | phototoxicity index | 6
Cc1cc(NC2CCN(C)CC2)ccc1-c1cc2c(N3CCC[C@H](C(=O)N[C@H](C)c4ccccc4)C3)ncnc2[nH]1 | NCI-H3122 | cell growth or viability, MTT | 0.008 µg/mL, 72 h |  | inhibition | 4.92%
COC(=O)c1cc(NC2=NC(=O)C(=Cc3ccc(C)cc3)S2)ccc1OC(C)=O | MCF7 | GC-MS, item: Arachidonic acid | 1 µM | reference: DMSO | metabolite level | -0.56 fold change
CCN(C(=O)c1cc(F)ccc1Oc1nncnc1N1CCC2(C1)CN([C@H](CCCN(C)CCOC)C(C)C)C2)C(C)C | SK-HEP1 | cell growth or viability | 72 h |  | GI50 | > 10 µM
CO[C@@H]1[C@@H](OC(N)=O)[C@@H](O)[C@H](Oc2ccc3c(O)c(NC(=O)c4ccc(O)c(CC=C(C)C)c4)c(=O)oc3c2C)OC1(C)C | DLD-1 BRCA2-/- |  | 100 µM, replicate 2 |  | colony count | 0.1
Cc1cc(NC2CCN(C)CC2)ccc1-c1cc2c(N3CCC[C@H](C(=O)NCc4ccc(OC(F)(F)F)cc4)C3)ncnc2[nH]1 | NCI-H3122 | cell growth or viability, MTT | 0.0016 µg/mL, 72 h |  | inhibition | 25.3%
O=C(C[Se]C(=O)c1cc2ccccc2s1)Nc1cccc(C(F)(F)F)c1 | NCI60 breast subpanel mean | cell growth |  |  | TGI | 3.97 µM
COc1ccccc1-c1ccncc1C(=O)Nc1nnc(OCc2ccc(Cl)cc2)s1 | MDA-MB-231 |  | 6 µM, mean of 3 replicates | reference: untreated | colony survival | 84.2%

For quick reference, copied from above:
SMILES | cell line | test | conditions | how to read | quantity | value
COc1ccc(NC(=O)c2ccc3[nH]c(-c4ccc(N(C)C)cc4)nc3c2)cn1 | ZR-75-1 | cell growth, CellTiter-Glo |  |  | GI50 | > 30 µM
O=C(Nc1nnc2c1c(-c1ccc(Cl)cc1)nc1sc(=Cc3ccco3)c(=O)n12)c1ccccc1 (mixture of isomers) | A498 | SRB | 10 µM, NCI60 single-dose screen | reference: untreated | cell growth | 78.8%
CCN(CC)CC(=O)Nc1cccc(-n2cc(-c3ccc4ccc(-c5cn(-c6cccc(NC(=O)CN(CC)CC)c6)nn5)cc4c3)nn2)c1 | RCC4 | PCR angiogenesis array, item: VEGFA | 5 x IC50, 4 h, normoxia | reference: untreated | fold regulation | -1.17 fold
O=C(C[Se]C(=O)c1ccc2ccccc2c1)Nc1cccc(C(F)(F)F)c1 | NCI60 prostate subpanel (PC-3, DU-145) | cell growth | 10 µM, 48 h, one-dose |  | mean growth percent | -81.8%
